Experimental data pooled from the literature.
Numbered parts are unrelated; each lists some results of a single study. Positions count from the first letter of the parent shown.

Series 1
Target: Sal-like protein 4, full length isoform A (SALL4, Homo sapiens, UniProt Q9UJQ4, residues 1-1053)
Chain of UniProt Q9UJQ4 (whole entry, looked up): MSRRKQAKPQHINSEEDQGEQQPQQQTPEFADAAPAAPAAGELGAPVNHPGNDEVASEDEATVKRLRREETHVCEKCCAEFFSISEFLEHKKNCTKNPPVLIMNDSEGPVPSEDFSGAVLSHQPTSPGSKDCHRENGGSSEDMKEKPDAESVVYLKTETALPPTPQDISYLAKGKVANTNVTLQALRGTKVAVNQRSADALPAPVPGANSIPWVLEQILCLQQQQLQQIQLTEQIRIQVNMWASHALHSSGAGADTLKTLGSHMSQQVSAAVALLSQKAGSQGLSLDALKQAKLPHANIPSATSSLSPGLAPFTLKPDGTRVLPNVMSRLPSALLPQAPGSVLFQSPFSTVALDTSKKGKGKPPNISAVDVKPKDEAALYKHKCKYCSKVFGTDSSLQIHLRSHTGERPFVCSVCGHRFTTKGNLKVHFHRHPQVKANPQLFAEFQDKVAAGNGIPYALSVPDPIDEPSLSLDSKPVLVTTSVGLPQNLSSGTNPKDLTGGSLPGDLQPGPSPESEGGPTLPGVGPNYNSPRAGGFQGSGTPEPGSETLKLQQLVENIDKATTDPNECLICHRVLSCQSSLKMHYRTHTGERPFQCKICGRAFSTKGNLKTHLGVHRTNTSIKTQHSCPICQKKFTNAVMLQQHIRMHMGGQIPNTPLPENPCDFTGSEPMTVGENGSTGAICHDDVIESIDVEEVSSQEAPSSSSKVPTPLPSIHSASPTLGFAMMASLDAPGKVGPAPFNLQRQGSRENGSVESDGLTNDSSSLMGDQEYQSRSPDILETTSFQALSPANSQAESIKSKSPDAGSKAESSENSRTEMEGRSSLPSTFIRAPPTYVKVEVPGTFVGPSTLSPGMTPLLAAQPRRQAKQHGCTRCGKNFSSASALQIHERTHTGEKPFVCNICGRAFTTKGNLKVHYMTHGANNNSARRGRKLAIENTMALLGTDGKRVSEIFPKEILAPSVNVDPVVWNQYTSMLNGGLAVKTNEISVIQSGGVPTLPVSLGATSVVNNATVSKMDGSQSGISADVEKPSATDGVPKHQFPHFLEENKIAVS
Technique: universal PBM
Molecule type: double-stranded DNA, one strand shown
Medium: in vitro
Tested at: 600 nM
Setting: 8-mer, flanks averaged, mean of replicates
Reading: higher = stronger binding
| Strand | E-score |
| --- | --- |
| CACTATAG | 0.189 |
| AGGCATAG | -0.0197 |
| CGACTCAG | -0.122 |
| CAGGTGCC | -0.298 |
| ATACTAGC | 0.0479 |
| CACAGTAC | 0.0221 |
| ACGTCCTA | -0.0942 |
| GTACCGCA | -0.121 |
| ACCCTACC | -0.146 |
| AGACCAAA | 0.0838 |
| CGCAGCAG | -0.219 |
| CGGTCAAC | -0.112 |
| AATGGCCG | -0.256 |
| GGGACTTA | 0.0195 |
| CATTGGGA | -0.00473 |
| AAGTTTGT | 0.152 |
| AGAATCAG | -0.0571 |
| AAGGGTAC | 0.00175 |
| AGGGCGGA | -0.251 |
| ACTACACG | 0.0188 |
| CCCAACGC | -0.261 |
| AAGTGTCG | -0.016 |
| ATACCACA | 0.121 |
| AAAACTTA | 0.326 |
| CGGTCCAG | -0.362 |

Series 2
Target: Histone acetyltransferase KAT6A, winged helix 2, GST fusion (KAT6A, Homo sapiens, UniProt Q92794, residues 85-181)
Technique: protein binding microarray
Molecule type: double-stranded DNA, one strand shown
Medium: in vitro
Tested at: not given
Setting: 8-mer, flanks averaged, mean of 2 arrays, mostly near background
Relative to: not given
Reading: higher = stronger binding
Target sequence (chain): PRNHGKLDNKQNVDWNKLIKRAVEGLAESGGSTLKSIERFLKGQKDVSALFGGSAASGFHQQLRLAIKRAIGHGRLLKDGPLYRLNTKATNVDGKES
| Strand | E-score |
| --- | --- |
| GCTCGAAA | 0.0221 |
| ACACAACC | -0.0372 |
| CCCAAGCG | 0.118 |
| ACGACGTC | -0.0379 |
| ACAAGAGA | -0.121 |
| GGTACACA | -0.00583 |
| ACACACTA | 0.0581 |
| CCTCTGAG | 0.0295 |
| CTTACAAA | 0.0258 |
| ACGTTCCA | -0.106 |
| CGCGCATA | -0.0389 |
| AGGAGGCA | -0.00344 |
| CTTCCGTC | 0.00186 |
| GAACCGAA | 0.134 |
| ACCGCAAG | 0.153 |

Series 3
Target: CCNE2, cyclin fold, Cln2 fusion (human)
Technique: yeast growth competition, sequencing
Medium: yeast
Setting: weak parent motif
Relative to: not given
Reading: higher = stronger binding
Starting sequence: PKN2 docking peptide (human); VSAVQKLDFSDTM
| Variant | normalised enrichment score |
| --- | --- |
| VSAVQKLDFSDGM [T12G] | 0.568 |
| VSFVQKLDFSDTM [A3F] | 0.125 |
| VSAVQKLAFSDTM [D8A] | 0.395 |
| ISAVQKLDFSDTM [V1I] | 0.0122 |
| LSAVQKLDFSDTM [V1L] | -0.252 |
| VSAVQKLLFSDTM [D8L] | 0.349 |
| VSAVQKLDFSDTK [M13K] | 0.51 |
| VSAVQKLDFSDTV [M13V] | 0.0978 |
| VSAVQKLQFSDTM [D8Q] | 0.425 |
| VSAVQKHDFSDTM [L7H] | 0.665 |
| VSAVQKLDFSDTH [M13H] | 0.582 |
| VSAVQKEDFSDTM [L7E] | 0.0743 |
| VSAVQKGDFSDTM [L7G] | -0.189 |
| VSRVQKLDFSDTM [A3R] | 0.142 |
| VSAVQKQDFSDTM [L7Q] | -0.168 |
| VWAVQKLDFSDTM [S2W] | 0.0427 |
| VSAVQKLDFSDTN [M13N] | 0.412 |
| VSAVQKADFSDTM [L7A] | 0.0464 |

Series 4
Target: Ras GTPase-activating protein-binding protein 1, full length (G3BP1, Homo sapiens, UniProt Q13283)
Chain of UniProt Q13283 (whole entry, looked up): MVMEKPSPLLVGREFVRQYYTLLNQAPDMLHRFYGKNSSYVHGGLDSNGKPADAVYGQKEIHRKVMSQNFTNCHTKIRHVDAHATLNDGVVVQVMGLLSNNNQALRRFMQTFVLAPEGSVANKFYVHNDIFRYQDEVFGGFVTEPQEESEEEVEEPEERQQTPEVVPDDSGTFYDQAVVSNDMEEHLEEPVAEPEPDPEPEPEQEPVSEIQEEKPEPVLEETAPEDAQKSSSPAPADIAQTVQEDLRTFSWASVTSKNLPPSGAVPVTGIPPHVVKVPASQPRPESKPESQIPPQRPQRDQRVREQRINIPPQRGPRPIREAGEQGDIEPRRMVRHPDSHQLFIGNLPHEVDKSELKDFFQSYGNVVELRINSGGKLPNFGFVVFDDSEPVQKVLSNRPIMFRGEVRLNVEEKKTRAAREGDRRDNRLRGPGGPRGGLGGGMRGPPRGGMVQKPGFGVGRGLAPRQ
Technique: RNA Bind-n-Seq
Molecule type: RNA
Medium: in vitro
Tested at: 200 nM
Setting: whole 134-nt RNA, ends assumed
With: 150 mM LiCl
Relative to: input library
Reading: higher = stronger binding
Library: 7-deaza-guanosine replaces G
Shared flanks, not repeated: GGGAGUUCUACAGUCCGACGAUC … UGGAAUUCUCGGGUGUCAAGG
| Strand | log2 enrichment |
| --- | --- |
| CACAGACAACACGUACCCACACAGACACAGAGGGAAGGGGUUGGGAUGGGGACAGGGUGCACAGCAGGGCGGGGUAGGACCCCAGCCCCU | -0.429 |
| UAACUUUAGAGGAGGAUCUGAUGGAUAUGGCAGUGGACGGGGAUUUGGGGAUGGCUAUAAUGGGUAUGGAGGAGGACCUGGAGGUGGCAA | -0.517 |
| UUUGCUGAUUUCUGGCUGGCGGAUCAGCUGAACAGCCUGUCAGUGAUACUGAUGGACCUGGAAUAUAUGAUCUGCUUCUACAGUUUGGAG | -3.08 |
| UCCUGUGCUACACAUCGUAUGUACCGAAUCAAAUUUUUAAAUUUUUUUAAAUUUUUAAAAAAGUAUUAUGUUACGCCGUUCGGAUCUGCA | -3.31 |
| AGUCCUGUGCUACACAUCGUAUGUACCGAAUCGGUUUUUGGGUUUUUGGGUUUUUGGGAAAGUAUUAUGUUACGCCGUUCGGAUCUGCAC | -0.118 |
| UUCCGCUGUCUUUUCUGUCUACAGUUUGCGAUCCCCGCGUCCAGGAUGGAGCAGCUGAACGAACUGGAGCUGCUGAUGGAGAAGAGUUUU | -2.58 |
| UGUGCUACACAUCGUAUGUACCGAAUCGGGGCCCCCCCGGGGCCCCCCCGGGGCCCCCCCGGGAAAGUAUUAUGUUACGCCGUUCGGAUC | -0.289 |
| CUGUGCUACACAUCGUAUGUACCGAAUCGGGAAAAAAAGGGUUUUUUUGGGAAAAAAAGGGAAAGUAUUAUGUUACGCCGUUCGGAUCUG | -1.45 |
| UAACUUUAGAGGAGGAUCUGAUGGAUAUCGCAGUGGACGUGGAUUUGGGGAUGGCUAUAAUGGGUAUGGAGGAGGACCUGGAGGUGGCAA | -0.0955 |
| UCCUGUGCUACACAUCGUAUGUACCGAAUCGGGGAAAGGGGAAAAAGGGGUUUUUGGGGAAAGUAUUAUGUUACGCCGUUCGGAUCUGCA | 0.659 |
| UCAAGUCCUGUGCUACACAUCGUAUGUACCGAAUCGGUUUGGGUUUGGGUUUGGGAAAGUAUUAUGUUACGCCGUUCGGAUCUGCACUUC | -1.4 |

Series 5
Target: UBE2U UBC core domain (UniProt Q5VVX9)
Technique: yeast two-hybrid
Medium: yeast
Setting: mostly zero background
Relative to: not given
Reading: higher = stronger interaction
B1: DTX2 RING domain (UniProt Q86UW9); chain EELKVPPDEDCIICMEKLSTASGYSDVTDSKAIGSLAVGHLTKCSHAFHLLCLLAMYCNGNKDGSLQCPSCKTIYGEKTGTQ
B2: RNF133 RING domain (UniProt Q8WVZ7); chain DEEINPNGDSCVICFERYKPNDIVRILTCKHFFHKNCIDPWILPHGTCPICKCDILKVLGIQ
B3: SYTL4 RING domain (UniProt Q96C24); chain RGSQHYSDRTCARCQESLGRLSPKTNTCRGCNHLVCRDCRIQESNGTWRCKVCAKEIELKKAT
B4: UBOX5 RING domain (UniProt O94941); chain EQPGSILGPECASCKRVFSPYFKKEPVYQLPCGHLLCRPCLGEKQRSLPMTCTACQRPVASQDVLR
B5: RFWD3 RING domain (UniProt Q6PCD5); chain ASMDEEEGDTCTICLEQWTNAGDHRLSALRCGHLFGYRCISTWLKGQVRKCPQCNKKARHSDIVV
B6: RNF19A RING domain (UniProt Q9NV58); chain ISKQIGDFIECPLCLLRHSKDRFPDIMTCHHRSCVDCLRQYLRIEISESRVNISCPECTERFNPHDIR
B7: RBCK1 RING domain (UniProt Q9BYM8); chain SLVLNTEPAECPVCYSVLAPGEAVVLRECLHTFCRECLQGTIRNSQEAEVSCPFIDNTYSCSGKLLEREIK
Target sequence (chain): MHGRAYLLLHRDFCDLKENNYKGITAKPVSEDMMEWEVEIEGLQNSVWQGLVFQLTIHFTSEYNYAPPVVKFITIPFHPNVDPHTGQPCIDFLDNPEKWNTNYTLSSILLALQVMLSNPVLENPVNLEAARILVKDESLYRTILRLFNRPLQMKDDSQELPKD
| Molecule | lacZ reporter activity |
| --- | --- |
| B1 (DTX2 RING domain) | 3810 |
| NLSELTPYILCSICKGYLIDATTITECLHTFCKSCIVRHFYYSNRCPKCNIVVHQTQPLY (PCGF6 RING domain (UniProt Q9BYE7)) | 11000 |
| B2 (RNF133 RING domain) | 15900 |
| B3 (SYTL4 RING domain) | 0 |
| B4 (UBOX5 RING domain) | 7120 |
| B5 (RFWD3 RING domain) | 0 |
| B6 (RNF19A RING domain) | 0 |
| AVPSGLEENLCKICMDSPIDCVLLECGHMVTCTKCGKRMNECPICRQYVIRAVHVF (RFFL RING domain (UniProt Q8WZ73)) | 0 |
| KLRKLKEAMLCMVCCEEEINSTFCPCGHTVCCESCAAQLQSCPVCRSRVEHVQHVY (MYLIP RING domain (UniProt Q8WY64)) | 8230 |
| PEDRESLKSACVVCLSSFKSCVFLECGHVCSCTECYRALPEPKKCPICRQAITRVIPLY (MUL1 RING domain (UniProt Q969V5)) | 7170 |
| B7 (RBCK1 RING domain) | 0 |

Series 6
Target: Interferon regulatory factor 7, full length, phosphomimetic (IRF7, Homo sapiens, UniProt Q92985, residues 1-503, S101K/S471D/S472D/S475D/S476D/S477D/S483D/S484D/S487D)
Technique: protein-binding microarray
Molecule type: double-stranded DNA, one strand shown
Medium: in vitro
Tested at: 250 nM
Setting: 60-bp whole probe
With: salmon DNA 0.4 mg/ml
Relative to: random background probes
Reading: higher = stronger binding
Shared flanks, not repeated: GCCTAGCAC … GTCTTGATTCGCTTGACGCTGCTG
Residues (chain): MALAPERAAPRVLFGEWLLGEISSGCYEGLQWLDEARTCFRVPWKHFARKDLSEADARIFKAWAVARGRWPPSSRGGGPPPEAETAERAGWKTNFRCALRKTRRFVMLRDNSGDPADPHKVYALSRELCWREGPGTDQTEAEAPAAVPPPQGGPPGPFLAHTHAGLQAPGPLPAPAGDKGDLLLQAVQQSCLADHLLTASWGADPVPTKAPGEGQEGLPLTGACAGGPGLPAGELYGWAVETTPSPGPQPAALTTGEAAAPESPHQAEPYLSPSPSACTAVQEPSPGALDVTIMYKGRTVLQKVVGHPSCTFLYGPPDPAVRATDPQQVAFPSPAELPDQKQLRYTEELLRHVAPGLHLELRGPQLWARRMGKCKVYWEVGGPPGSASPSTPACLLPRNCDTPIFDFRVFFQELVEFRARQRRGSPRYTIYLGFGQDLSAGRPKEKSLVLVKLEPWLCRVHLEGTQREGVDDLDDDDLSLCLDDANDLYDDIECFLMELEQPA
| Strand | log fluorescence |
| --- | --- |
| GACGGACTGGGACTGGGAACGTGCTAG | -0.406 z-score |
| TTATATATCAGACTGGATTAGTGCTAG | 0.284 z-score |
| TCATTTTTCCCTCTGGAACTGTGCTAG | 1.32 z-score |
| TCATCCTTCTGACATCAAACTGTGCTA | 0.81 z-score |
| TCAGCTTTCCTGATGACACTGTGCTAG | 0.304 z-score |
| TTAGATTTCAGTATCGATCAGTGCTAG | 0.551 z-score |
| GACGAACTGATTTTCGAGACGTGCTAG | 0.576 z-score |
| GGTGGGGTGCAGCAGGGCCAGTGCTAG | -1.39 z-score |
| GACGGTTTCGGTATGGGGACGTGCTAG | 10.2 z-score |
| TTAGGTCTACTTATCCTTTAGTGCTAG | 0.422 z-score |
| GAAGGACTGGGACTGGGGACGTGCTAG | -0.552 z-score |
| AAGACTCTCTTGTCTGGATGTGTGCTA | 0.232 z-score |
| TTAGGACTGGGTTTTGGTTAGTGCTAG | 0.864 z-score |
| TTAGATTTAAGTCTCGATTAGTGCTAG | 1.36 z-score |
| TTATTTAGGATAGAACTATAGTGCTAG | 0.771 z-score |
| TTAGGACTGTGGTATCGGTTAGTGCTA | 0.6 z-score |
| GTGAAATAAGGGAGGCCTAGGTGCTAG | -0.509 z-score |

A few entries again (series 6):
| Strand | log fluorescence |
| --- | --- |
| GACGAACTGATTTTCGAGACGTGCTAG | 0.576 z-score |
| TCAGCTTTCCTGATGACACTGTGCTAG | 0.304 z-score |
| TCATCCTTCTGACATCAAACTGTGCTA | 0.81 z-score |
| TTATTTAGGATAGAACTATAGTGCTAG | 0.771 z-score |
| AAGACTCTCTTGTCTGGATGTGTGCTA | 0.232 z-score |
| TTAGATTTAAGTCTCGATTAGTGCTAG | 1.36 z-score |
